Assay results gathered from unrelated publications.
UniProt Q16512, sequence (whole entry, looked up): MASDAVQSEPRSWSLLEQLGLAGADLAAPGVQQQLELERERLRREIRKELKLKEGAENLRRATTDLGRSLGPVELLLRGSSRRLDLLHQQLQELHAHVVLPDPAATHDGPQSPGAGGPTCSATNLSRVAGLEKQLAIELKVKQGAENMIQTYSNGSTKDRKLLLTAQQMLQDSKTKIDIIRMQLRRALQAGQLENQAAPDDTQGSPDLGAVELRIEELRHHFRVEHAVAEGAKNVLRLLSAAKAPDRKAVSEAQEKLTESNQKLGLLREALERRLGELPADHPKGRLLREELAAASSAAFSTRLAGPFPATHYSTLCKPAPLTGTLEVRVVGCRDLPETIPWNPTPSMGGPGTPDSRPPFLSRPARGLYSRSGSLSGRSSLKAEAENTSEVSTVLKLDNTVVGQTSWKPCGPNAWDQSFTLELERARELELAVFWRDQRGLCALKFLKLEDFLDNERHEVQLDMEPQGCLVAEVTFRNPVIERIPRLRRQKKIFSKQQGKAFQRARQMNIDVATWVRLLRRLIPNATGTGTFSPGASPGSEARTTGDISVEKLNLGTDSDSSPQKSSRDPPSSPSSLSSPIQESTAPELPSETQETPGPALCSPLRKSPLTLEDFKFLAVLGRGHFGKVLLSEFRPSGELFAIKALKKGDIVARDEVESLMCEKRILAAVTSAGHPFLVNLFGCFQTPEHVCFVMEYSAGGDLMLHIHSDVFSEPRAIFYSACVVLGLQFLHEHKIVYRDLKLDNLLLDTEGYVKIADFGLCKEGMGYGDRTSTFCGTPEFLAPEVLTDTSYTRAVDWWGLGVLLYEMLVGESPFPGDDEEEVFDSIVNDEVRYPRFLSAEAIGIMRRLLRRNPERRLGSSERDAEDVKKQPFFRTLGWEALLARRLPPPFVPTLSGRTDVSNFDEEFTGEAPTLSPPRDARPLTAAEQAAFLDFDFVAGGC
UniProt P35414, sequence (whole entry, looked up): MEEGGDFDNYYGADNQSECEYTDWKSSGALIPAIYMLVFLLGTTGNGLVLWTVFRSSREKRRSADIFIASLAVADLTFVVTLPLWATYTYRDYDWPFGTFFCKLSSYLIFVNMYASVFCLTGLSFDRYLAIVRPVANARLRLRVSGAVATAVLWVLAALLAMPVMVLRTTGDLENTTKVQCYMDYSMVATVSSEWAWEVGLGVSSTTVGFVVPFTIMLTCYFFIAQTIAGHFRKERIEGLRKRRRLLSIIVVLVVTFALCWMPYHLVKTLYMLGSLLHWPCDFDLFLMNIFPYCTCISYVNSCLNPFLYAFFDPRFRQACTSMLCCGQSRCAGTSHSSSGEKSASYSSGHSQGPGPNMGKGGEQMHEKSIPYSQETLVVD
UniProt P15823, sequence (whole entry, looked up): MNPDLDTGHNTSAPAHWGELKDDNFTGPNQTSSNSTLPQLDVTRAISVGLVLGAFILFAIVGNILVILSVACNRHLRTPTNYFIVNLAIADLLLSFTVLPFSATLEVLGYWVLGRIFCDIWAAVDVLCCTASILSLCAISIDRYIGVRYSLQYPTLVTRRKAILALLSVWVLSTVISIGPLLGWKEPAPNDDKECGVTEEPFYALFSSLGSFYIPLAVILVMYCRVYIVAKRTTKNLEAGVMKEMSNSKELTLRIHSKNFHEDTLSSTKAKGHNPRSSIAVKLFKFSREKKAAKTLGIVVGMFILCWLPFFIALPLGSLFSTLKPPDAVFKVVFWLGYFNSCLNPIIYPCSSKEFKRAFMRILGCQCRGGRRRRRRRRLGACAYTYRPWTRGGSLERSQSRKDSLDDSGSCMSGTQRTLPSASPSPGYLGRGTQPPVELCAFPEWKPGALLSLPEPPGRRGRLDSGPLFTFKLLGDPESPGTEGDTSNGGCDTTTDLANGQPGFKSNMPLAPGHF
UniProt P19784, sequence (whole entry, looked up): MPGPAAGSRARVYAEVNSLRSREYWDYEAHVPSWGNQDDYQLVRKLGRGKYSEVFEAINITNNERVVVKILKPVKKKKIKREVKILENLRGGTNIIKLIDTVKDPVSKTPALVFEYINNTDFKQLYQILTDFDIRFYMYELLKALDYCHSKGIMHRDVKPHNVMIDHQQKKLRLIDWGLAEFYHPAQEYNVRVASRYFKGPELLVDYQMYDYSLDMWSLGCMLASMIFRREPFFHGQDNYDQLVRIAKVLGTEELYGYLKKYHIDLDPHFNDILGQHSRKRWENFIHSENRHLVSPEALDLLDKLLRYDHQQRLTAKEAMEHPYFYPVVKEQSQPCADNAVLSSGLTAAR
UniProt P32239, sequence (whole entry, looked up): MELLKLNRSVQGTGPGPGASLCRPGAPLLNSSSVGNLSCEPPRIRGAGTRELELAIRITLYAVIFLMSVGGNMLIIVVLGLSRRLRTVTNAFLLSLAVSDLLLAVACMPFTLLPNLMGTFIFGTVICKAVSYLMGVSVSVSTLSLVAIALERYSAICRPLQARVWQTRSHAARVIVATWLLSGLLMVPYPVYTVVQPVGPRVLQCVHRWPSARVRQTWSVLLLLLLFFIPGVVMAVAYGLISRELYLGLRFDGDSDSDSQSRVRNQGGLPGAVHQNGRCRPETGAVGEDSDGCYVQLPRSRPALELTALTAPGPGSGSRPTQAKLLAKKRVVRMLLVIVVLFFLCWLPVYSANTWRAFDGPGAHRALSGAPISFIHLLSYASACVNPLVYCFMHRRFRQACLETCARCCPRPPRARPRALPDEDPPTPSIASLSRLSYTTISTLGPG
UniProt Q15375, sequence (whole entry, looked up): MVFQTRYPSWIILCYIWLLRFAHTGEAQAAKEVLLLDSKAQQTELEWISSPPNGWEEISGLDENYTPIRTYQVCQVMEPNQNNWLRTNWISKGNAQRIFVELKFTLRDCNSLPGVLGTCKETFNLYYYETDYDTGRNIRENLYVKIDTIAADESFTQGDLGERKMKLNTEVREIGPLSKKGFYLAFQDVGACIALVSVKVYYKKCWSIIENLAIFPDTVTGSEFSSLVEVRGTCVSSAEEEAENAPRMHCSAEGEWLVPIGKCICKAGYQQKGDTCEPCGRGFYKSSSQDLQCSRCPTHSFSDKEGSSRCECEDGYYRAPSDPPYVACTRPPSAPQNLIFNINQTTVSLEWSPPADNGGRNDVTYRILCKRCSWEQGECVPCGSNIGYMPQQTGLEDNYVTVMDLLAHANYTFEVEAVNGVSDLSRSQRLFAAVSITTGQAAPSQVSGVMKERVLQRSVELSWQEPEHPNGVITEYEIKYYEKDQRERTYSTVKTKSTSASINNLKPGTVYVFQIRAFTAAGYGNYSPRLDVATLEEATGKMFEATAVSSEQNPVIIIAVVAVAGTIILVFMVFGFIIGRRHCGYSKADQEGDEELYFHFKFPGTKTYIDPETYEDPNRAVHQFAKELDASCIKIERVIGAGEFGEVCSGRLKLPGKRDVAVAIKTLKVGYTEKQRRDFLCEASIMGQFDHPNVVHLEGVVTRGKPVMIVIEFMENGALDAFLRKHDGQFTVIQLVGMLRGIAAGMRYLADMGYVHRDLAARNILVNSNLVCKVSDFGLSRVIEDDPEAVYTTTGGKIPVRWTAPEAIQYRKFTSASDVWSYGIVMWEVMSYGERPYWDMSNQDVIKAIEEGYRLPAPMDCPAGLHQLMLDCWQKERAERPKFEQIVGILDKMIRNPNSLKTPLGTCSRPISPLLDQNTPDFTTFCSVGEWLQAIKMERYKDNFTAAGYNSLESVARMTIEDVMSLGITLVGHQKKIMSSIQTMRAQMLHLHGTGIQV

SMILES	target or system	test	system	setting	endpoint	value
Cc1ncc(C)n2nc(/C=C/c3nc(N4CCCC4)cc(N4CCOCC4)n3)nc12	GABA-gated chloride channel	radioligand binding	–	10 µM	inhibition	20%
CN(CCN1CCC(OC(=O)Nc2ccccc2-c2ccccc2)CC1)C(=O)c1ccc(CN2CCC(C(N)=O)CC2)cc1	rat PCP site	radioligand binding	–	1 µM, together with: [3H]TCP 5.0 nM	inhibition	-11%
O=C(Nc1cnccc1Cl)N1CCN(Cc2ccc3c(c2)OC(F)(F)O3)CC1	Adra1b (Rattus norvegicus, UniProt P15823)	binding	–	50 µM, together with: [3H]prazosin	inhibition	3%
COCc1c(-c2cc3cc(C)cc(OC)c3s2)c2c(N)ncnn2c1CN1CCNC(=O)C1	GABAB receptor	radioligand binding	–	10 µM	inhibition	0%
CN1CCN(c2cc(-c3ccncc3)c(-c3ccc4ccccc4c3)nn2)CC1	Apelin receptor (APLNR, Homo sapiens, UniProt P35414)	antagonist, FLIPR	–	10 µM	inhibition	-5.5%
COc1ccc(N2C(=O)N(c3c(C)cccc3Cl)Cc3cnc(Nc4ccc(C5CCN(C)CC5)cc4OC)nc32)nc1	EPHA7 (Homo sapiens, UniProt Q15375)	kinase activity	–	0.5 µM	inhibition	5.52%
FC(F)(F)c1cccc(Nc2nc(NCCOc3ccccc3)nc3[nH]cnc23)c1	CSNK2A2 (Homo sapiens, UniProt P19784)	enzyme activity, inhibitor, Thermo Fisher kinase screening	–	5 µM	inhibition	6%
CC(C)N1CCC[C@H]1CNC(=O)c1cn(C2CCCC2)c(=O)c2c1c1ccccc1n2C	thyroid hormone receptor (rat)	radioligand binding	–	10 µM	inhibition	7%
CC[C@]1(O)C[C@H]2CN(CCc3c([nH]c4ccccc34)[C@@](C(=O)OC)(c3cc4c(cc3OC)N(C=O)[C@H]3[C@@](O)(C(=O)OC)[C@H](OC(C)=O)[C@]5(CC)C=CCN6CC[C@]43[C@@H]65)C2)C1	Plasmodium falciparum	–	GB4	–	IC50	3.16 µM
CN(C(=O)n1cnc(-c2ccc[n+]([O-])c2)c1)C1CCCCC1	CCKBR (Homo sapiens, UniProt P32239)	radioligand binding	–	50 µM	inhibition	7%
COc1cc(C[C@@H](C)N)c(OC)cc1I	Plasmodium falciparum	–	Dd2	–	IC50	10 µM
COc1cc(Nc2ncc(F)c(Nc3ccc4c(n3)NC(=O)C(C)(C)O4)n2)cc(OC)c1OC	PKN1 (Homo sapiens, UniProt Q16512)	KINOMEscan	–	10 µM	inhibition	96%

Excerpt of the above:
SMILES	target or system	test	system	setting	endpoint	value
CN(C(=O)n1cnc(-c2ccc[n+]([O-])c2)c1)C1CCCCC1	CCKBR (Homo sapiens, UniProt P32239)	radioligand binding	–	50 µM	inhibition	7%
